# Results gathered from unrelated publications.
# The chains behind the UniProt entries cited, without tags or fusion partners. Residues count along the entry.
# UniProt B2RXH2, whole entry: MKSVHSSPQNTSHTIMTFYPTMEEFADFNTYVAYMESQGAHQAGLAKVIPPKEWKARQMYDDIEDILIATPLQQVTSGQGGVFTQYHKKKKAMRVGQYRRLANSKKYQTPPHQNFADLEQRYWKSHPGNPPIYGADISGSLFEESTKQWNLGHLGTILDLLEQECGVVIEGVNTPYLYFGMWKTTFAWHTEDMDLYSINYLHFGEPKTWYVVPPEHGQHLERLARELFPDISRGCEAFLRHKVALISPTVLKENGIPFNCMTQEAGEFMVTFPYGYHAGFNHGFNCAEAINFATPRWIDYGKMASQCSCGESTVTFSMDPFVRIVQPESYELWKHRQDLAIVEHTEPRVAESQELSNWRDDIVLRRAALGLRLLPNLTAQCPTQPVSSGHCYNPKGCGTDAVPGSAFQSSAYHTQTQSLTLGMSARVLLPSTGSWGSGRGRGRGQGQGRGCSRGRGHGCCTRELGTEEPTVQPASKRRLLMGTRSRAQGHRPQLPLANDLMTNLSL
# UniProt P53004, whole entry, looked up: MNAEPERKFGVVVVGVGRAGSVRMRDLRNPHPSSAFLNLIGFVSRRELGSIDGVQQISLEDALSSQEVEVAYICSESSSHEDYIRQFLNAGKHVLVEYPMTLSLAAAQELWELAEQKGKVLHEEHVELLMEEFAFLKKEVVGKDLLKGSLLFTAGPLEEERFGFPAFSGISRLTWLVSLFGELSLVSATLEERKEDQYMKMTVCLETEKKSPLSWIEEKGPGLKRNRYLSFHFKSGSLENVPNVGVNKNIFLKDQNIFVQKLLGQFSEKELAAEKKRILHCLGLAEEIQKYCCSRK
# UniProt Q8N6T7, whole entry: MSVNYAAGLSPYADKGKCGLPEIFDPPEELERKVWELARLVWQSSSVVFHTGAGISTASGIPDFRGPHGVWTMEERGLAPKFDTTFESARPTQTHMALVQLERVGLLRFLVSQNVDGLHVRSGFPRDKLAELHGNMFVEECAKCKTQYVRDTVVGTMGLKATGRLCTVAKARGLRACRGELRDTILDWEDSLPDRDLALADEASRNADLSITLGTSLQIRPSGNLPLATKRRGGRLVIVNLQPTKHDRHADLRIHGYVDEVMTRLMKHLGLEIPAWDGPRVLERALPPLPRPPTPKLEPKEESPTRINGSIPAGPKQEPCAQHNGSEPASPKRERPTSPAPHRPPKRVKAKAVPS
# UniProt P45983, 1-384 isoform 3: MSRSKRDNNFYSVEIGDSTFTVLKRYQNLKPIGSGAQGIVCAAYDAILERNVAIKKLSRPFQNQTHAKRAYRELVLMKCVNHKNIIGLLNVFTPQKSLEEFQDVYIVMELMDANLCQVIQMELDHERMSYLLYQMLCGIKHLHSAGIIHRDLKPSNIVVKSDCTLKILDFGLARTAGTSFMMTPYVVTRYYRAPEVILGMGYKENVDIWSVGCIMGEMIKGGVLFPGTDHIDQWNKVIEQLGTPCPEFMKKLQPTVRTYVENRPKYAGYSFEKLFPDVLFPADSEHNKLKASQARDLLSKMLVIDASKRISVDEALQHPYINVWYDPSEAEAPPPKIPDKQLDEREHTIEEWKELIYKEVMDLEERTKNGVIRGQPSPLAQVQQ
# UniProt P30043, whole entry: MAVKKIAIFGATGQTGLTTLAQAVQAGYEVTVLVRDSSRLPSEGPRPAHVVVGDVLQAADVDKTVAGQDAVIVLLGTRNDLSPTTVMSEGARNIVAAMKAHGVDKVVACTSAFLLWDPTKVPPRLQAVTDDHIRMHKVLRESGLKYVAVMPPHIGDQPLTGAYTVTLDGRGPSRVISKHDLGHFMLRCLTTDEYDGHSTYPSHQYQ
# UniProt Q9GZT9, whole entry: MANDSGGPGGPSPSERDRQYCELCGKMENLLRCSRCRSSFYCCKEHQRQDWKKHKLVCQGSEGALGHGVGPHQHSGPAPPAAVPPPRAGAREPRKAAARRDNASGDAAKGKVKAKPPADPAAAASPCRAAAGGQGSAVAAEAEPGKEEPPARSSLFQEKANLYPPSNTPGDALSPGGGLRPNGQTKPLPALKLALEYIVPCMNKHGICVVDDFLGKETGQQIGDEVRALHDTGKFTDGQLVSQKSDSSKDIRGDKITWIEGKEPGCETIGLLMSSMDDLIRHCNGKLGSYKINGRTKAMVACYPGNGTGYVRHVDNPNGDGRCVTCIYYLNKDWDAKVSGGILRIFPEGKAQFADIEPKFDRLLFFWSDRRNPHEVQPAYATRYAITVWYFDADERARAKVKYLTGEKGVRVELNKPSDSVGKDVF
# UniProt P09917, whole entry: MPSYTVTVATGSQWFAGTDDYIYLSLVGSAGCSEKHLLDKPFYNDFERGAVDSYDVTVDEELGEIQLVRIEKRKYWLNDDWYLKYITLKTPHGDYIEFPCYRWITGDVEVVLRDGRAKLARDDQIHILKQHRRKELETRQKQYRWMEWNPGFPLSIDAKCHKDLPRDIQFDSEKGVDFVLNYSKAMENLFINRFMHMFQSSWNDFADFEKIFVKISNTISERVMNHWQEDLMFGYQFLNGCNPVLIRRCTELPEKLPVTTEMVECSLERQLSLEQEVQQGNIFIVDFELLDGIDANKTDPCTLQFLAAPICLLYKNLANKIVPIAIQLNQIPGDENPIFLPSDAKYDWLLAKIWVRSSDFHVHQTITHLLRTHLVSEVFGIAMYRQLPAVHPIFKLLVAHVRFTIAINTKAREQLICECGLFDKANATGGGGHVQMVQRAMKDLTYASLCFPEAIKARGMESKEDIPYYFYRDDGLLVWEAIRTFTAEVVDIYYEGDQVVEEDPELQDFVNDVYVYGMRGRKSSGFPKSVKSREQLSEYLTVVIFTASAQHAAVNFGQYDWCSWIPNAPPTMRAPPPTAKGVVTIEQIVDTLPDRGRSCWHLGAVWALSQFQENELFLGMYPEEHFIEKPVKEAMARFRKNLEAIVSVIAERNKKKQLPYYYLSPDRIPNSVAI
# UniProt Q13546, whole entry: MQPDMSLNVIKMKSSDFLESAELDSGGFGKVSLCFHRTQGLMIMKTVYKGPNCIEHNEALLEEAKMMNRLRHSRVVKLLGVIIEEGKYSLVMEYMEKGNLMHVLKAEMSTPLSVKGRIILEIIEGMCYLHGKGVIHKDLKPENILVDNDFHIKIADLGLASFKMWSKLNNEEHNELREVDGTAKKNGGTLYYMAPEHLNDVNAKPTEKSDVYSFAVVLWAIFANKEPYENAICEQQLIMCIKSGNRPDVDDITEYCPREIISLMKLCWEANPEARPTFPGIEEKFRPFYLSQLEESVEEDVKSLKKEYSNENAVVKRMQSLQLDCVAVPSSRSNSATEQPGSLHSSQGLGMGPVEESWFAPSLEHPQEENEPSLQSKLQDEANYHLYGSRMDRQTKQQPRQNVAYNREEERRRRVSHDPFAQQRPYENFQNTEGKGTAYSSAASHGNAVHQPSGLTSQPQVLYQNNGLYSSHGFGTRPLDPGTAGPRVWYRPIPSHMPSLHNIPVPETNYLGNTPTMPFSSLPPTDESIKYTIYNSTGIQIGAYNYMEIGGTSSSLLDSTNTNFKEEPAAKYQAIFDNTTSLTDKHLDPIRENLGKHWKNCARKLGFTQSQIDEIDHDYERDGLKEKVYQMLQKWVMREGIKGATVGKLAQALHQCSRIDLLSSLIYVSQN
# Lines come from different studies, so protocols differ. Numbers after ± are the reported error.
# KDM4E: Lysine-specific demethylase 4E (KDM4E, Homo sapiens, UniProt B2RXH2)
# BLVRA: BLVRA (Homo sapiens, UniProt P53004)
# SIRT6: NAD-dependent protein deacylase sirtuin-6 (SIRT6, Homo sapiens, UniProt Q8N6T7)
# MAPK8: Mitogen-activated protein kinase 8 (MAPK8, Homo sapiens, UniProt P45983)
# BLVRB: Flavin reductase (NADPH) (BLVRB, Homo sapiens, UniProt P30043)
SMILES,target,assay,test system,conditions,how to read,remaining activity
O=C(O)c1ccc(Nc2c(C(=O)O)ccnc2C(=O)O)cc1,KDM4E,"inhibitor, FDH-coupled spectrophotometry, refers to: formaldehyde",,200 µM,,13%
Cc1c(-c2ccccc2)nn2c(=O)cc(-c3cccc(-c4nnn[nH]4)c3)[nH]c12,BLVRA,"enzyme activity, inhibitor",,"10 µM, with: biliverdin IXα 25 µM",,112%
Nc1nonc1-n1cc(C(=O)N/N=C/c2cccs2)nn1,SIRT6,"deacetylase activity, Fluor de Lys",,"100 µM, with: Ac-RHKK(Ac)-AMC substrate",,32 ± 1.82%
COc1ccccc1Nc1c(C(=O)O)ccnc1C(=O)O,"Egl nine homolog 1 (EGLN1, Homo sapiens, UniProt Q9GZT9)","inhibitor, HTRF",,400 µM,,100%
Cc1cc(NC(=O)c2cccc(NC(=O)C3=CC(C)(C)CCC3=O)c2)ccc1Nc1nccc(-c2cccnc2)n1,MAPK8,"kinase activity, inhibitor",,"0.1829 µM, unit not given, with: 10 mM GSH",baseline: DMSO,0.738
CCc1c(-c2ccco2)nn2c(=O)cc(-c3cccc(C(=O)O)c3)[nH]c12,BLVRA,"enzyme activity, inhibitor",,"10 µM, with: biliverdin IXα 25 µM",,94%
COc1ccc(CNc2c(C(=O)O)ccnc2C(=O)O)cc1,KDM4E,"inhibitor, FDH-coupled spectrophotometry, refers to: formaldehyde",,200 µM,,29%
O=C(CCc1ccc(O)cc1O)c1ccc(O)cc1,"ALOX5 (Homo sapiens, UniProt P09917)","5-LOX product formation, RP-HPLC",human PMNL,"10 µM, with: A23187 and arachidonic acid",baseline: control,60.1 ± 8.2%
Cc1cc(NC(=O)c2cccc(NC(=O)C3=CC(C)(C)CC3=O)c2)ccc1Nc1nccc(-c2cccnc2)n1,MAPK8,"kinase activity, inhibitor",,"0.5487 µM, unit not given, with: 10 mM GSH",baseline: DMSO,0.346
O=C(O)c1cccc(-c2cc(=O)n3nc(-c4ccco4)cc3[nH]2)c1,BLVRB,,,concentration not given,,43%
Cc1ccccc1Nc1c(C(=O)O)ccnc1C(=O)O,KDM4E,"inhibitor, FDH-coupled spectrophotometry, refers to: formaldehyde",,200 µM,,3%
Nc1nonc1-n1cc(C(=O)N/N=C/c2ccccc2OC(F)(F)F)nn1,SIRT6,"deacetylase activity, Fluor de Lys",,"100 µM, with: Ac-RHKK(Ac)-AMC substrate",,48.1 ± 1.02%
CCCCNC(=O)NC1CC=C(c2cc3c(Nc4cc5ncsc5cc4F)ncnc3s2)CC1 (stereo not shown),"RIPK1 (Homo sapiens, UniProt Q13546)",kinase activity,,1 µM,baseline: control,109 ± 4%
COC(=O)[C@@]1(C)C=C(C(=O)Nc2cccc(C(=O)NC34CC(Nc5nccc(-c6cccnc6)n5)(C3)C4)c2)C(=O)CC1,MAPK8,"kinase activity, inhibitor",,"8.363e-05 µM, unit not given, with: 10 mM GSH",baseline: DMSO,1.02
O=C(O)c1ccnc(C(=O)O)c1Nc1ccc([N+](=O)[O-])cc1,KDM4E,"inhibitor, FDH-coupled spectrophotometry, refers to: formaldehyde",,200 µM,,0%
O=C(O)c1ccc(-c2nc(-c3ccccc3F)c3sccn23)cc1,BLVRB,,,concentration not given,,37%

# A few entries again:
SMILES,target,assay,test system,conditions,how to read,remaining activity
Cc1cc(NC(=O)c2cccc(NC(=O)C3=CC(C)(C)CC3=O)c2)ccc1Nc1nccc(-c2cccnc2)n1,MAPK8,"kinase activity, inhibitor",,"0.5487 µM, unit not given, with: 10 mM GSH",baseline: DMSO,0.346
O=C(O)c1cccc(-c2cc(=O)n3nc(-c4ccco4)cc3[nH]2)c1,BLVRB,,,concentration not given,,43%
